Measured values collected from several papers.
RPS6KA1 C-terminal kinase domain: Ribosomal protein S6 kinase alpha-1, C-terminal kinase domain (RPS6KA1, Homo sapiens, UniProt Q15418)
RPS6KA1 N-terminal kinase domain: Ribosomal protein S6 kinase alpha-1, N-terminal kinase domain (RPS6KA1, Homo sapiens, UniProt Q15418)

| SMILES | target | observed | technique | concentration | reference | remaining binding [%] |
| --- | --- | --- | --- | --- | --- | --- |
| CNC1C[S+]2CC[S+]3CC[S+](C1)[Ru-4]321([N]=C=S)[n]2c3ccc(OC)cc3c3c4c(c5cc(F)c[n+]1c5c32)C(=O)NC4=O (stereo not drawn) | RPS6KA1 C-terminal kinase domain |  | KinomeScan | 0.1 µM | untreated | 77 |
| COc1cc(Nc2nc(C)cc(-c3cnn4nc(OC)ccc34)n2)cc(C(F)(F)F)c1 | RPS6KA1 C-terminal kinase domain | binding | competition with immobilised ligand | 1 µM |  | 88 |
| CC(C)=CC1OC(C)(C)C2C=C3C(=O)C(Cl)=CC(O)C3C3C(O)C4OC4C(=O)C132 (stereo not drawn) | RPS6KA1 N-terminal kinase domain | cell-free assay | competition with immobilised ligand | 10 µM |  | 90 |
| Cc1cnc2nc1Nc1cccc(c1)COC/C=C/COCc1cc(ccc1OCCN1CCOCC1)N2 | RPS6KA1 C-terminal kinase domain | binding | competition with immobilised ligand | 0.1 µM |  | 98 |
| C=CC(=O)N1CCCC(n2c(=O)c3ncccc3n(Cc3ccc(Oc4ccccc4)cc3)c2=O)C1 (stereo not drawn) | RPS6KA1 N-terminal kinase domain | binding | competition with immobilised ligand | 1 µM |  | 96 |
| COc1cc(Nc2nccc(-c3cnn4nc(OC)ccc34)n2)cc(C(F)(F)F)c1 | RPS6KA1 C-terminal kinase domain | binding | competition with immobilised ligand | 1 µM |  | 100 |
| C=CC(=O)N1CCc2ccc(-n3c(=O)ccc4cnc5ccc(-c6cnn(C)c6)cc5c43)cc21 | RPS6KA1 N-terminal kinase domain |  | KINOMEscan | 1 µM | DMSO control | 72 |
| CCN1CCN(Cc2ccc(C(=O)Nc3ccc(C)c(NCc4cnc5[nH]ccc5c4OC)c3)cc2C(F)(F)F)CC1 | RPS6KA1 C-terminal kinase domain | binding | competition with immobilised ligand | 1 µM |  | 91 |
| Cc1ccc(-c2c(/C=C(\C#N)C(=O)NC(C)C)n(CCCO)c3ncnc(N)c23)cc1 | RPS6KA1 C-terminal kinase domain | binding | competition with immobilised ligand | 1 µM |  | 29 |
| CNC(=O)C1CCN(c2cc(C)c(F)cc2NC(=O)c2ccc(-c3cc(O)ccc3C)c(C)c2)CC1 | RPS6KA1 N-terminal kinase domain | binding | competition with immobilised ligand | 1 µM |  | 95 |
| Nc1ncc2c(n1)-c1c([nH]c3ccc(C4=CCOCC4)cc13)CCC2 | RPS6KA1 N-terminal kinase domain | binding | competition with immobilised ligand | 1 µM |  | 100 |
| COc1c(Cl)cccc1Nc1c(-c2ccncc2C#C[C@@]2(C)CCCN2C(=O)/C=C/CN(C)C)[nH]c2c1C(=O)NCC2 | RPS6KA1 N-terminal kinase domain | binding | competition with immobilised ligand | 3 µM |  | 86 |

Excerpt of the above:
| SMILES | target | observed | technique | concentration | reference | remaining binding [%] |
| --- | --- | --- | --- | --- | --- | --- |
| CNC(=O)C1CCN(c2cc(C)c(F)cc2NC(=O)c2ccc(-c3cc(O)ccc3C)c(C)c2)CC1 | RPS6KA1 N-terminal kinase domain | binding | competition with immobilised ligand | 1 µM |  | 95 |
| CC(C)=CC1OC(C)(C)C2C=C3C(=O)C(Cl)=CC(O)C3C3C(O)C4OC4C(=O)C132 (stereo not drawn) | RPS6KA1 N-terminal kinase domain | cell-free assay | competition with immobilised ligand | 10 µM |  | 90 |
